# Results from different studies.
# Parts stem from different laboratories: compare values within a part only. Changes are numbered by the printed parent chain.

# Sample 1 — target: CCNB1, cyclin fold, Cln2 fusion (human); method: yeast growth competition, sequencing; matrix: yeast; notes: weak parent motif; reference: not given; reading: higher = stronger binding
# Starting sequence: SLBP docking peptide (human); ARYKRKLLINDFG
Variant,normalised enrichment score
ARYKRKLLINDVG [F12V],0.302
ARYKRKLLINGFG [D11G],0.431
ARYKRCLLINDFG [K6C],1.45

# Sample 2 — method: protein binding microarray; form: double-stranded DNA, one strand shown; matrix: in vitro; tested at: not given; reference: not given; reading: higher = stronger binding
# Target: Histone acetyltransferase KAT6A, both winged helices, GST fusion (KAT6A, Homo sapiens, UniProt Q92794, residues 1-181)
# Notes: 8-mer, flanks averaged, mean of 2 arrays, mostly near background
# Residues (chain): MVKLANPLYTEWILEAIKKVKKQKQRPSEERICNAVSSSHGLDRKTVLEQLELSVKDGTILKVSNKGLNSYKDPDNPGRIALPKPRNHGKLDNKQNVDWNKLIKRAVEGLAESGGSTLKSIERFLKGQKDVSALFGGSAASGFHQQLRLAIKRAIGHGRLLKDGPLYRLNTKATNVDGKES
Strand,E-score
AAAGAACT,-0.0491
GAAGAATA,-0.141
ACAAGGGC,-0.0896
GTCTCCAC,-0.106
AGGGTAGC,0.0161
GGAGGCGA,-0.0288
GTTTCCCA,-0.0915

# Sample 3 — method: protein-binding microarray; form: double-stranded DNA, one strand shown; matrix: in vitro; tested at: 940 nM top; notes: 60-bp whole probe; with: salmon DNA 0.4 mg/ml; reference: random background probes; reading: higher = stronger binding
# Target: Interferon regulatory factor 5, full length, phosphomimetic (IRF5, Homo sapiens, UniProt Q13568-2, residues 1-514, S451D/S453D/S456D/S462D)
Strand,fitted relative affinity
GCCTAGCACTTCTGAACCATTTTGGTTTTGTGCTAGGTCTTGATTCGCTTGACGCTGCTG,-0.028 z-score
GCCTAGCACTTAGGACTGGGACTGAGTTAGTGCTAGGTCTTGATTCGCTTGACGCTGCTG,-0.616 z-score
GCCTAGCACTCAAGTTTGTAAATCTTACTGTGCTAGGTCTTGATTCGCTTGACGCTGCTG,-0.403 z-score
GCCTAGCACTACGATTTCAGTATCGAGACGTGCTAGGTCTTGATTCGCTTGACGCTGCTG,2.52 z-score

# Other studies, line by line
Molecule,target,test,test system,setting,scale,endpoint,result
"PhoQ, residues 284 288 289 292 302 303 GANMMA","PhoP, residues 12 14 15 18 19 NIMAP (Escherichia coli, UniProt P23836)","Sort-seq, measured: YFP reporter",E. coli,"PhoQ-PhoP variant library, with: 10 µM Mg2+","reference: high Mg2+ state, higher = stronger signaling",fold induction,0.769

# Excerpt of the above (sample 3):
Strand,fitted relative affinity
GCCTAGCACTCAAGTTTGTAAATCTTACTGTGCTAGGTCTTGATTCGCTTGACGCTGCTG,-0.403 z-score
